Results gathered from unrelated publications.
Numbered parts are unrelated; each lists some results of a single study.

Study 1 — method: RNA Bind-n-Seq; form: RNA; medium: in vitro; tested at: 365 nM; reference: no-protein control; reading: higher = stronger binding
Target: RNA binding protein fox-1 homolog 2, RRM domain, GST-SBP tag (RBFOX2, Homo sapiens, UniProt O43251-10, residues 100-194)
Notes: natural RNA segment, single round, ends assumed
Shared flanks, not repeated: GGGAGUUCUACAGUCCGACGAUC … UGGAAUUCUCGGGUGCCAA
Target sequence (chain): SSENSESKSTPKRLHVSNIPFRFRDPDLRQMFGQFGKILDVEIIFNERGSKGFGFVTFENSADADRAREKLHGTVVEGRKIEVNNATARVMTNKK
Strand	RBNS enrichment (R)
AUUAAAGGAAAGAAAAAGCAUCUCAAAUGAGUGUAAGUUGUUCUUGAGAAAAAAAUGUAUCAGACUUUUAUGAUUUGAAUGAAAUGUAUUAUAGAAAAAAAUAAACACUU	20.6
CAGCAUGCAUCACGGAUCAAUAGACUGUACUUAUUUUCCAAUAAAAUUUUCAAACUUUGUACUGUUAUCCUGAGAAUCUGUUCUUUGUCCAGUCCACAGCUUACCUGCAC	76.6
CCCCAAAGUCAGAGGUGAUUUGAUUUGGGGAAGACUGAAUAUUCACACCUAAGUCGUGAGCAUAUCCUGAGUUUUACUUCCUUAUGGCUUGCCCUCCAAGUUCUCUCUCU	0.348
GCGGGCAGGUUUCUAGGCUGCUCUAAGCUUCUACCUUGAAGGCAGUUGGGUCUGAUAAUAGUACCUUCUUCCUGGGGUGGUUGUGAGGAUAUAACGAGGUAAUGCAUGUA	24.2
CUAUACUUUGCCAUGCACGACUGUUCCUGCAAUUGAUAUUGUGUGAAAUCUGGGAGGGUGGUCUUUGGGUGUUCUCAGGGGCCAAUGGUAAUUUUUGGGUUGGGGAGCCA	0.548
AUUUUUAAAGCUGCUUCCUGUUUGUUGAGGGUCUGUAUUCAUAGACCUUGACUGGAAUAUGUAAGACUGUGCAAAAAAAAAAAAAAAAUUUAUGUGUAUUCUUAUUCAAA	1.11
UAAGCAUCUCAGAUCUGCAGUAUUGUGGUGGUGCUCCACUGAGCAGGAGUCCACUCAGAAGCAUGAGAACGGCCUGUAAUCCAGGCCGUGUCCUGCCACUAUGCCUGUAU	1.55
AAUUGUACCUGUAAGAAAAUCAUACAACUCAGCAUCCAGUUGGCUUUUUAAGAAUUCUGUACUUCCAAUUUAUAAUGAAUACUUUCUUAGAUUUUAGGUAGGAGGGGAGC	5.15

Study 2 — method: RNA Bind-n-Seq; form: RNA; medium: in vitro; tested at: 1 µM; notes: whole 134-nt RNA, ends assumed; added: 150 mM KCl; reference: input library; reading: higher = stronger binding
Target: Ras GTPase-activating protein-binding protein 1, C-terminal RGG region (G3BP1, Homo sapiens, UniProt Q13283)
Sequence of UniProt Q13283 (whole entry, looked up): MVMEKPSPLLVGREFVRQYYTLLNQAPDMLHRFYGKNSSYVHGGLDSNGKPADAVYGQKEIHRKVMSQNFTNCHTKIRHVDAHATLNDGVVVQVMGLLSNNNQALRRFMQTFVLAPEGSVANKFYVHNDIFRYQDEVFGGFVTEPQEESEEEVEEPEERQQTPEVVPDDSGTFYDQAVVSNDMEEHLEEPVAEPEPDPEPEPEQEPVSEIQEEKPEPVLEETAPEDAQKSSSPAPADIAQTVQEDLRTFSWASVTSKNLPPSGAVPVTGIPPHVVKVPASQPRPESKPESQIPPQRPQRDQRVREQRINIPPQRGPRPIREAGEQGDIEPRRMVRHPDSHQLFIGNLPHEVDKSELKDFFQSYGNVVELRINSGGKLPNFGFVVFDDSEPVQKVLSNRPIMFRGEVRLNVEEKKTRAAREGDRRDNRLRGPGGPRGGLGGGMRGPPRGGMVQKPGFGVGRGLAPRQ
Shared flanks, not repeated: GGGAGUUCUACAGUCCGACGAUC … UGGAAUUCUCGGGUGUCAAGG
Strand	log2 enrichment
UAACUUUAGAGGAGGAUCUGAUGGAUAUGGCAGUGGACGUGGAUUUGGGGAUGGCUAUAAUGGGAAUGGAGGAGGACCUGGAGGUGGCAA	-0.92
UGGUUAGUCAACUACUUUGGUUCCUUAUCAGUAGAAGACUCCCUAGAAUGUCUCAGAGCCAUGCUGUCUGCCAACAUCCGUCAGAAUCUG	-0.579
CAAGUCCUGUGCUACACAUCGUAUGUACCGAAUCGGUUUUUUUGGUUUUUGGAGGAAAGUAUUAUGUUACGCCGUUCGGAUCUGCACUUC	-1.62
AGUCCUGUGCUACACAUCGUAUGUACCGAAUCGGGUUUUUGGUUUUUGGGGUUUUUGGAAAGUAUUAUGUUACGCCGUUCGGAUCUGCAC	-1.24
UGGGAGGUGGAUUUUGUUUAUUUUUUUAGCUCAUUUCCAGAGGUGGGAAUUUUUUUUUAAUAUGUGUCAUGAAUAAAGUUGUUUUUGAAA	2.81
GCAGGGAGUAAAAACAAAUGGAAAUGCUUCGGAUAGUGGCAGGGGUGGGGGUUGCUAAGGAAAGGGUGGGAUGGGAGUGGGUAAAGAGUU	1.69
CCUGUGCUACACAUCGUAUGUACCGAAUCGGGUUUUUUUGGGAAAAAGGGAAAAAAAGGGAAAGUAUUAUGUUACGCCGUUCGGAUCUGC	-2.21
UCCUGUGCUACACAUCGUAUGUACCGAAUCGGGCCCCCCGGCCCCCCGGGCCCCCCGGGGAAAGUAUUAUGUUACGCCGUUCGGAUCUGC	-0.754
CUGUGCUACACAUCGUAUGUACCGAAUCGGGUUUUUUUGGUUUUUUUGGGGUUUUUUUGGGGAAAGUAUUAUGUUACGCCGUUCGGAUCU	-1.14

Study 3 — method: protein binding microarray; form: double-stranded DNA, one strand shown; medium: in vitro; tested at: not given; reference: not given; reading: higher = stronger binding
Target: Histone acetyltransferase KAT6A, both winged helices, GST fusion (KAT6A, Homo sapiens, UniProt Q92794, residues 1-181)
Notes: 8-mer, flanks averaged, mean of 2 arrays, mostly near background
Target sequence (chain): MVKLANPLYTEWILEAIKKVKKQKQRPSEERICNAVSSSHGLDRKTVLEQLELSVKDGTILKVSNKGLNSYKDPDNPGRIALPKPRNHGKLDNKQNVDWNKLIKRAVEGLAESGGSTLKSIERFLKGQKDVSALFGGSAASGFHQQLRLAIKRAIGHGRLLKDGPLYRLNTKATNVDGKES
Strand	E-score
AAACAGCT	-0.05
CCGCGGAG	0.351
GCGACTGA	0.171
AGCTAATC	-0.129
GGTAGACC	-0.0368
CATCTTGG	-0.212
TATGTAAA	-0.0814
AACAATTA	0.0691
AAGGCGCG	0.348
AAGCACGC	0.0302
AAAGCGAG	0.106
GATTAACA	0.0106
ATAGGCAA	-0.236
ACGGCGCG	0.371
GTGGCTTA	-0.0429
ACGTGTAA	-0.0607
CGTGAGGC	0.00926
TAGGCTGA	-0.149

Study 4 — method: aptamer microarray, sandwich; form: DNA with 2'F-ANA; medium: in vitro; tested at: 200 nM; added: Cy3 exosite-II aptamer, 400 nM; reading: higher = stronger binding; strand: GGTTGGTGTGGTTGG
Target: Prothrombin, mature alpha-thrombin (F2, Homo sapiens, UniProt P00734)
Notes: whole 15-mer aptamer, many near background
Modification	mean fluorescence intensity [a.u.]
2'F-ANA at 1 4 7 10 13 14 15	72.3
2'F-ANA at 1 2 4 6 8 9 11 13 14	52.4
2'F-ANA at 1 6 11 12 13 14 15	66.1
2'F-ANA at 1 2 3 4 5 11 14 15	45.1
2'F-ANA at 1 2 3 4 8 9 10 12 13 14	53.6
2'F-ANA at 4 6 7 9 10 11	80.2
2'F-ANA at 2 3 4 5 6 7 9 10 11 12 13 14 15	73.5
2'F-ANA at 2 4 6 9 13 14 15	70.7
2'F-ANA at 2 5 12 13	132
2'F-ANA at 7 9 14	268
2'F-ANA at 1 2 3 6 7 8 9 10 13 14 15	112
2'F-ANA at 3 4 5 6 8 9 10 11 13 14	49.3
2'F-ANA at 2 3 4 9 10 14	193
2'F-ANA at 3 7 11 14	642
2'F-ANA at 1 2 4 5 6 7 8 11 12	81.6
2'F-ANA at 1 7 8 10 12 13 14	49.3
2'F-ANA at 4 5 7 9 10 11 12 14	51.3
2'F-ANA at 8 9 10 12 13 14 15	121
2'F-ANA at 2 3 6 10 11	385
2'F-ANA at 1 3 5 6 7 8 9 11 13	52
2'F-ANA at 5 7 8 10 11 12 13 14	45.9
2'F-ANA at 1 4 6 7 8 9 10 11 12 13 14 15	69.1
2'F-ANA at 1 2 4 5 6 9 10 12 13 15	56.3
2'F-ANA at 2 8 10 11 13 14	73.6

Repeated from above (study 2):
Strand	log2 enrichment
UCCUGUGCUACACAUCGUAUGUACCGAAUCGGGCCCCCCGGCCCCCCGGGCCCCCCGGGGAAAGUAUUAUGUUACGCCGUUCGGAUCUGC	-0.754
UGGGAGGUGGAUUUUGUUUAUUUUUUUAGCUCAUUUCCAGAGGUGGGAAUUUUUUUUUAAUAUGUGUCAUGAAUAAAGUUGUUUUUGAAA	2.81
UAACUUUAGAGGAGGAUCUGAUGGAUAUGGCAGUGGACGUGGAUUUGGGGAUGGCUAUAAUGGGAAUGGAGGAGGACCUGGAGGUGGCAA	-0.92
CUGUGCUACACAUCGUAUGUACCGAAUCGGGUUUUUUUGGUUUUUUUGGGGUUUUUUUGGGGAAAGUAUUAUGUUACGCCGUUCGGAUCU	-1.14
CCUGUGCUACACAUCGUAUGUACCGAAUCGGGUUUUUUUGGGAAAAAGGGAAAAAAAGGGAAAGUAUUAUGUUACGCCGUUCGGAUCUGC	-2.21
GCAGGGAGUAAAAACAAAUGGAAAUGCUUCGGAUAGUGGCAGGGGUGGGGGUUGCUAAGGAAAGGGUGGGAUGGGAGUGGGUAAAGAGUU	1.69
UGGUUAGUCAACUACUUUGGUUCCUUAUCAGUAGAAGACUCCCUAGAAUGUCUCAGAGCCAUGCUGUCUGCCAACAUCCGUCAGAAUCUG	-0.579
